# Experimental data collected from several papers.
# Lines come from different studies, so protocols differ.
# OPRM1: Mu-type opioid receptor (OPRM1, Homo sapiens, UniProt P35372)
# Sequence of UniProt P35372 (whole entry, unmodified, looked up): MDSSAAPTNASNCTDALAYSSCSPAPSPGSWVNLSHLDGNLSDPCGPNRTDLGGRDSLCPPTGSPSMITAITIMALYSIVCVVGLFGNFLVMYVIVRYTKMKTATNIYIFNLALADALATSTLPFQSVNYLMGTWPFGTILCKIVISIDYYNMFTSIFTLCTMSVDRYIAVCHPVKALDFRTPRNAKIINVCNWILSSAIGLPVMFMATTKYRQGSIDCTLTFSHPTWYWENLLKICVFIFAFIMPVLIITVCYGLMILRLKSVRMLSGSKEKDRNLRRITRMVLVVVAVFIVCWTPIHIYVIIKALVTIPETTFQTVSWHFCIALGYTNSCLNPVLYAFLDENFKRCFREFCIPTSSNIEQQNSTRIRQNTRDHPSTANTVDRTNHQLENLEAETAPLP
SMILES,target,test,setting,how to read,quantity,result
C[C@@H](NC(=O)[C@@H](N)Cc1ccc(O)cc1)C(=O)NCC(=O)N(C)[C@@H](Cc1ccccc1)C(=O)NCCO,OPRM1,"GTPγS binding, agonist, radiometric",cell membranes,,Emax,130%
Cc1cc(O)cc(C)c1C[C@H](N)C(=O)N[C@@H]1CSSC[C@@H](NC(=O)[C@@H](N)Cc2c(C)cc(O)cc2C)C(=O)NCC(=O)N[C@@H](Cc2ccccc2)C(=O)NNC(=O)[C@H](Cc2ccccc2)NC(=O)CNC1=O,OPRM1,"GTPγS binding, agonist, radiometric",cell membranes,,Emax,78%
"CCOC(=O)C1C(OC(c2ccc(Cl)cc2)c2ccc(Cl)cc2)CC2CCC1N2C (single isomer, unassigned)",OPRM1,binding,"10000 nM, added: [3H]diprenorphine",,displacement,inactive
C[C@@H](O)[C@H](NC(=O)[C@H]1NC(=O)[C@H]([C@@H](C)O)NC(=O)[C@H](CCCN)NC(=O)[C@@H](Cc2c[nH]c3ccccc23)NC(=O)[C@H](Cc2ccc(O)cc2)NC(=O)[C@@H](NC(=O)[C@H](N)Cc2ccccc2)CSSC1(C)C)C(N)=O,"OPRM1 (Homo sapiens, UniProt P35372, C348A/C353A)",,concentration not given,relative to: OPRM1 over human MOR,binding affinity increase,≥ 10 fold
"COC(=O)C1C(OC(c2ccc(Cl)cc2)c2ccc(Cl)cc2)CC2CCC1N2C (single isomer, unassigned)",OPRM1,binding,"10000 nM, added: [3H]diprenorphine",,displacement,inactive
CC(C)[C@H]1CC[C@H](N2CC[C@@](C)(c3cccc(O)c3)[C@@H](C)C2)CC1,OPRM1,agonist,,,efficacy,0%
Cc1cc(O)cc(C)c1C[C@H](N)C(=O)N1Cc2ccccc2C[C@H]1C(=O)NCC(=O)NCc1ccccc1,OPRM1,"GTPγS binding, agonist, radiometric",cell membranes,,Emax,84%
C[C@@H](Cc1ccsc1)NC(=O)NC[C@H](Cc1ccc(O)cc1)N(C)C,"Mu-type opioid receptor, with Gi/o/z proteins (OPRM1, Homo sapiens, UniProt P35372)","receptor activation, agonist",,,Emax,67 to 89%

# Excerpt of the above:
SMILES,target,test,setting,how to read,quantity,result
"COC(=O)C1C(OC(c2ccc(Cl)cc2)c2ccc(Cl)cc2)CC2CCC1N2C (single isomer, unassigned)",OPRM1,binding,"10000 nM, added: [3H]diprenorphine",,displacement,inactive
